Results gathered from unrelated publications.
Lines come from different studies, so protocols differ. ± marks the error that the study gave.
HCRTR1: Orexin/Hypocretin receptor type 1 (HCRTR1, Homo sapiens, UniProt O43613)
Chain of UniProt O43613 (whole entry, looked up): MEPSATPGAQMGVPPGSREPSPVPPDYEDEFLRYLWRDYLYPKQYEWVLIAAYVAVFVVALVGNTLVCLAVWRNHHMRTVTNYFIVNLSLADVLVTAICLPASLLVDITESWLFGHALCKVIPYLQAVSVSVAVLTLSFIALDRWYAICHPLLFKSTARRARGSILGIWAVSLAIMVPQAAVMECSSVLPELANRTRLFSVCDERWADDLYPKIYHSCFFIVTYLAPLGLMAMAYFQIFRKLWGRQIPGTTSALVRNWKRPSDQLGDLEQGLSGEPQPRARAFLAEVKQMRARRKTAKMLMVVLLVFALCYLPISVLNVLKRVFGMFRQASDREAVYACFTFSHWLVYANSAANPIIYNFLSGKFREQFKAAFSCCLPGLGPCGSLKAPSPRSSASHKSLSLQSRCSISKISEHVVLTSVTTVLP

SMILES	target or system	assay	system	setting	quantity	value
CNc1cc(C(=O)CNc2ccccc2)ccc1OC	Enterovirus A	cytopathic effect	Vero, EV71	48 h	IC50	82.3 µM
O=C1NC(=S)S/C1=C\c1c[nH]c2ccc([N+](=O)[O-])cc12	Trypanosoma equiperdum		trypomastigotes, IVM-t1		IC50	38.2 ± 0.85 µM
COc1cc2c(cc1OC)C(Cc1cccc(OC(C)C)c1)N(CC(=O)NCc1ccccc1)CC2 (stereo not shown)	HCRTR1	calcium signal, antagonist, fluorescence			Kb	1.47 µM
C[C@@H]1[C@H](O)[C@@H](C)/C=C/C=C/C=C/C=C/C=C/C=C/C=C/[C@H](O[C@@H]2O[C@H](C)[C@@H](O)[C@H](N)[C@@H]2O)C[C@@H]2O[C@](O)(C[C@@H](O)C[C@@H](O)[C@H](O)CC[C@@H](O)C[C@@H](O)CC(=O)O[C@H]1C)C[C@H](O)[C@H]2C(=O)O	Leishmania donovani	parasite growth	THP-1	intracellular, amastigote	IC50	0.08 µM
C#CCn1cc(/C=C2\SC(=S)NC2=O)c2cc([N+](=O)[O-])ccc21	Trypanosoma equiperdum		trypomastigotes, IVM-t1		IC50	> 78 µM
CCOC(=O)c1ccc(OCCC2CCN(c3ccc(C)nn3)CC2)cc1	Enterovirus A	cytopathic effect	Vero, EV71	48 h	IC50	0.16 µM
CC1(C)CC[C@]2(C(=O)O)CC[C@]3(C)C(=CC[C@@H]4[C@@]5(C)CC[C@H](O)C(C)(C)[C@@H]5CC[C@]43C)[C@@H]2C1	Eimeria tenella	parasite growth		24 h	IC50	19.2 µM
CCC(=O)Nc1cc(C(=O)Nc2ccc(C(C)(C)C)cc2)ccc1O	Enterovirus A	cytopathic effect	Vero, EV71	48 h	IC50	9.1 µM
C[C@H]1[C@H](C)CC[C@]2(C(=O)O)CC[C@]3(C)C(=CC[C@@H]4[C@@]5(C)CC[C@H](O)C(C)(C)[C@@H]5CC[C@]43C)[C@H]12	Eimeria tenella	viability	sporozoites	24 h	IC50	47.8 µM
O=C1NC(=S)S/C1=C\c1cn(Cc2cccc(Cl)c2)c2ccc([N+](=O)[O-])cc12	Trypanosoma equiperdum		trypomastigotes, IVM-t1		IC50	> 61 µM
CC(C)[C@H](NC(=O)[C@@H]1CCCN1C(=O)[C@H](CCCNC(=N)N)NC(=O)[C@H](CS)NC(=O)[C@H](Cc1c[nH]c2ccccc12)NC(=O)[C@H](CCCNC(=N)N)NC(=O)[C@@H](Cc1ccccc1)NC(=O)[C@H](Cc1c[nH]cn1)NC(=O)[C@H](CCC(=O)O)NC(=O)[C@H](CS)NC(=O)[C@H](CS)NC(=O)[C@H](CCCCN)NC(=O)[C@@H]1CC(=O)N[C@@H](CCCNC(=N)N)C(=O)N[C@@H](C)C(=O)N[C@@H](CC(=O)O)C(=O)N[C@H](Cc2ccc(O)cc2)C(=O)N1)C(N)=O [technetium-99m labelled]			C57 mice, stomach	intravenous, 0.037 MBq, 4 h	tissue uptake	1.09 ± 0.37 %ID/g
COc1ccccc1C1Sc2ccc(C(F)(F)F)cc2NC2=C1C(=O)c1ccccc12 (stereo not shown)	Chlamydia trachomatis	inclusion formation, immunofluorescence imaging	HEp-2, serovar L2	24 h post-infection, added 8 h post-infection	IC50	1.08 µg/mL
C#CCn1cc(C=O)c2cc([N+](=O)[O-])ccc21	Trypanosoma equiperdum		trypomastigotes, IVM-t1		IC50	> 110 µM
NC(=O)c1ncn([C@@H]2O[C@H](CO)[C@@H](O)[C@H]2O)n1	Porcine epidemic diarrhea virus	cytopathic effect, SRB	Vero	48 h	IC50	4.1 µg/mL
O=C1CSC(=S)N1/N=C/c1c[nH]c2ccc([N+](=O)[O-])cc12	Trypanosoma equiperdum		trypomastigotes, IVM-t1		IC50	> 61 µM
N#Cc1ccc(C2SCCNC3=C2C(=O)c2ccccc23)cc1 (stereo not shown)	Chlamydia trachomatis	inclusion formation, immunofluorescence imaging	HEp-2, serovar L2	24 h post-infection, added 8 h post-infection	IC50	> 25 µg/mL
C#CCn1cc(/C=N/N2C(=O)CSC2=S)c2cc([N+](=O)[O-])ccc21	Trypanosoma equiperdum		trypomastigotes, IVM-t1		IC50	> 59 µM
CNc1cc(C(=O)Nc2ccc(C#N)cc2)ccc1OC	Enterovirus A	cytopathic effect	Vero, EV71	48 h	IC50	16.3 µM
Cc1ncc([N+](=O)[O-])n1CCO	Tritrichomonas foetus	growth	D1		IC50	0.72 µM
CCC(=O)Nc1cc(C(=O)CNc2ccc(C)cc2)ccc1OC	Enterovirus A	cytopathic effect	Vero, EV71	48 h	IC50	> 22.7 µM
COc1cc2c(cc1OC)C(Cc1ccc(OC(C)C)cc1)N(CC(=O)NCc1ccccc1)CC2 (stereo not shown)	HCRTR1	calcium signal, antagonist, fluorescence			Kb	0.489 µM
O=C1NC(=S)S/C1=C\c1cn(Cc2ccc(F)cc2)c2ccc([N+](=O)[O-])cc12	Trypanosoma equiperdum		trypomastigotes, IVM-t1		IC50	> 63 µM
O=C1C(=O)N(CC#CCN2CCN(c3ccnc4cc(Cl)ccc34)CC2)c2ccccc21	Tritrichomonas foetus	growth	D1		IC50	22.2 µM
O=C1C2=C(Nc3ccccc3SC2c2cccc(O)c2)c2ccccc21 (stereo not shown)	Chlamydia trachomatis	inclusion formation, immunofluorescence imaging	HEp-2, serovar L2	24 h post-infection, added 8 h post-infection	IC50	~16 µg/mL
CNc1cc(C(=O)CNc2ccc(Cl)cc2)ccc1OC	Enterovirus A	cytopathic effect	Vero, EV71	48 h	IC50	> 24.4 µM
